Measurements pooled from the literature.
Protocols differ between the studies behind these lines. Numbers after ± are the reported error.
Target: Albumin (ALB, Homo sapiens, UniProt P02768)

SMILES | test | system | conditions | quantity | value
CC1(C(F)(F)F)NC(=O)N(c2ccc(F)c(C(F)(F)F)c2)C1=O (stereo not shown) | – | human plasma | – | fraction unbound | 0.085
O=C1CC[C@H](N2Cc3c(OCc4ccc(CN5CCOCC5)cc4)cccc3C2=O)C(=O)N1 | equilibrium dialysis | human serum albumin 50 mg/mL | 6 h, 37 °C | fraction unbound | 0.428
O=C1CCC(N2C(=O)c3cccc(NCC(=O)OCCCCc4cn(CCCCCCN5CCc6c(c7ccccc7n6Cc6ccc(C(=O)NO)cc6)C5)nn4)c3C2=O)C(=O)N1 (stereo not shown) | HPLC on immobilised albumin column | – | – | fraction unbound | 0.033
OC[C@H]1O[C@@H](Oc2cc3c(O)cc(O)cc3[o+]c2-c2ccc(O)c(O)c2)[C@H](O)[C@@H](O)[C@@H]1O | binding, fluorescence quenching | – | pH 7, 40 °C, HSA 2 µM | Kd | 30.6 ± 5.32 µM
CCS(=O)(=O)N1CCC2(CC1)NC(=O)N(c1ccc(F)c(C(F)(F)F)c1)C2=O | – | – | – | unbound fraction | 0.412
CN(CCCCCCNC(=O)CNc1cccc2c1C(=O)N(C1CCC(=O)NC1=O)C2=O)Cc1cn(Cc2ccc(C(=O)NO)cc2)c2ccccc12 (stereo not shown) | HPLC on immobilised albumin column | – | – | fraction unbound | 0.03
Cc1cc(NC(=O)Nc2ccc3c(c2)OC(F)(F)O3)cc(C(F)(F)F)n1 | HSA column HPLC | – | – | unbound fraction | 0.015
CC1(C(F)F)NC(=O)N(c2ccc(F)c(C(F)(F)F)c2)C1=O (stereo not shown) | – | human plasma | – | fraction unbound | 0.274
C=C[C@@H]1C[C@]1(NC(=O)[C@@H]1C[C@@H]2CN1C(=O)[C@H](C(C)(C)C)NC(=O)O[C@@H]1C[C@H]1CCCCCc1nc3ccc(OC)cc3nc1O2)C(=O)NS(=O)(=O)C1CC1 | rapid equilibrium dialysis | 4.5% albumin solution | – | unbound fraction | 0.0122
O=C(CNc1cccc2c1C(=O)N(C1CCC(=O)NC1=O)C2=O)NCCCCCCN1CCc2c(c3ccccc3n2Cc2ccc(C(=O)NO)cc2)C1 (stereo not shown) | HPLC on immobilised albumin column | – | – | fraction unbound | 0.033
O=C1NC2(CCS(=O)(=O)CC2)C(=O)N1c1ccc(F)c(C(F)(F)F)c1 | – | – | – | unbound fraction | 0.748
OC[C@H]1O[C@@H](Oc2cc3c(O)cc(O)cc3[o+]c2-c2ccc(O)cc2)[C@H](O)[C@@H](O)[C@@H]1O | binding, fluorescence quenching | – | pH 7, 20 °C, HSA 2 µM | Kd | 45.9 ± 1.2 µM
Cc1cc(C)c(CNC(=O)c2cc(Cl)c3c(c2C)O[C@@](C)([C@H]2CC[C@H](N(C)C)CC2)O3)c(=O)[nH]1 | ultracentrifugation | 4% human serum albumin solution | 5000 ng/mL, 160 min | unbound fraction | 0.64
OC[C@H]1O[C@@H](Oc2cc3c(O)cc(O)cc3[o+]c2-c2cc(O)c(O)c(O)c2)[C@H](O)[C@@H](O)[C@@H]1O | visible absorption spectroscopy | acetonitrile–HSA system | 50 µM, pH 7, with: HSA 200 µM | λmax | > 630 nm
CC1(C)NC(=O)N(c2cccc(C(F)(F)F)n2)C1=O | – | – | – | unbound fraction | 0.904
Cc1nc2cccc(N)c2c(=O)n1C1CCC(=O)NC1=O (stereo not shown) | equilibrium dialysis | human serum albumin 50 mg/mL | 6 h, 37 °C | fraction unbound | 0.794
COc1cc(-c2[o+]c3cc(O)cc(O)c3cc2O[C@@H]2O[C@H](CO)[C@@H](O)[C@H](O)[C@H]2O)cc(O)c1O | binding, visible absorption spectroscopy | – | pH 7, with: HSA 200 µM | Kd | 12.6 ± 1.11 µM
Fc1ccc(N2CCNCC2COc2ccc3ccccc3c2)cc1 (stereo not shown) | HPLC retention on immobilised albumin | human serum albumin column | – | fraction unbound | < 0.02
CCc1ccc(CCOc2ccc(CC3SC(=O)NC3=O)cc2)nc1 (stereo not shown) | equilibrium dialysis | human serum albumin 50 mg/mL | 6 h, 37 °C | fraction unbound | 0.002
CC1(C)NC(=O)N(c2ccc(F)c(Br)c2)C1=O | – | – | – | unbound fraction | 0.457
O=S(=O)(c1ccc(F)cc1)N1CCNCC1COc1ccc2ccccc2c1 (stereo not shown) | HPLC retention on immobilised albumin | human serum albumin column | – | fraction unbound | < 0.02
Cc1cc(N2C(=O)NC(C)(C)C2=O)cc(C(F)(F)F)n1 | – | – | – | unbound fraction | 0.795
CCOc1ccc(-c2nc3ccc(-c4nc5ccc(N6CCN(C)CC6)cc5[nH]4)cc3[nH]2)cc1 | – | PBS | 1 µM, 1 h, with: 25 mg/mL albumin | fluorescence quantum yield | 0.082 ± 0.003
COc1cc(-c2[o+]c3cc(O)cc(O)c3cc2O[C@@H]2O[C@H](CO)[C@@H](O)[C@H](O)[C@H]2O)ccc1O | binding, fluorescence quenching | – | pH 7, 40 °C, HSA 2 µM | Kd | 85.2 ± 8.86 µM
Nc1cccc2c1C(=O)N(C1CCC(=O)NC1=O)C2=O (stereo not shown) | equilibrium dialysis | human serum albumin 50 mg/mL | 6 h, 37 °C | fraction unbound | 0.704

A few entries again:
SMILES | test | system | conditions | quantity | value
C=C[C@@H]1C[C@]1(NC(=O)[C@@H]1C[C@@H]2CN1C(=O)[C@H](C(C)(C)C)NC(=O)O[C@@H]1C[C@H]1CCCCCc1nc3ccc(OC)cc3nc1O2)C(=O)NS(=O)(=O)C1CC1 | rapid equilibrium dialysis | 4.5% albumin solution | – | unbound fraction | 0.0122
CCc1ccc(CCOc2ccc(CC3SC(=O)NC3=O)cc2)nc1 (stereo not shown) | equilibrium dialysis | human serum albumin 50 mg/mL | 6 h, 37 °C | fraction unbound | 0.002
O=C1CC[C@H](N2Cc3c(OCc4ccc(CN5CCOCC5)cc4)cccc3C2=O)C(=O)N1 | equilibrium dialysis | human serum albumin 50 mg/mL | 6 h, 37 °C | fraction unbound | 0.428
